Experimental data from different studies.
Lines come from different studies, so protocols differ. “And” joins repeats or separate records; there may be more than shown.
B1: yukC (Bacillus subtilis, UniProt P71070); sequence looked up; chain MSGEQKSYLENQLEAVAEKTDAGYTFTFQREKIKLLDGLEANVIKDINPFFHKEIDVTDDEVIITIQPPSSYKAFRFMKAKDKKSKWQFAYQLVQAVQQHNLSRLNLIVAPENIVFDKGLTPYFLHYGVKESIPPYERDEERVWQELKAAAALAVDGAFAFEDYLKFNETLTFSAEAKAILDAESYDDLLELIQTHIDELEAKAKTYIHIPRKKWNIQRYIGLGLIVLLVPALIYSMYALFFAQPKHQAIVDSNRAFLNKQYSEVISTLSKYDAESLPESVQYQLATSYVEVENLGSAKTKNIENNLVTLQSDPQHFLYWIDYGRGEYKEAISIGRKLEYNDYIYFALAKYKQQLLSEDTNDEDIQKELDSVNSELEKAQKERQENKQSNSETSLVDTSEEQTQTDEEKQAEEKAAEEKAAAEEKAKKEEQKEKEDEKKETEKKDEKKDDK
B2: protein (Pseudomonas putida, UniProt A0ABM7EIE4); sequence looked up; chain MLRILLIDDTQHKLGRLKAALIEAGFEVTEAPGLTIDLPACVETVRPDVVLIDTDSPDRDVMEQVVLVSRDQPRPIVLFTDEHDPGVMRQAIQAGVSAYIVEGIHAARLQPILDVAMARFESDQALKAQLVARDQQLAERKRIEQAKGLLMKMKDCNEEQAYTLMRRQAMSRQQKLIQVAEQIIAMHEMLG
B3: gpB portal 23-533 (bacteriophage lambda, UniProt P03710); sequence looked up; chain GYHGGGSGFGGQLRSWNPPSESVDAALLPNFTRGNARADDLVRNNGYAANAIQLHQDHIVGSFFRLSHRPSWRYLGIGEEEARAFSREVEAAWKEFAEDDCCCIDVERKRTFTMMIREGVAMHAFNGELFVQATWDTSSSRLFRTQFRMVSPKRISNPNNTGDSRNCRAGVQINDSGAALGYYVSEDGYPGWMPQKWTWIPRELPGGRASFIHVFEPVEDGQTRGANVFYSVMEQMKMLDTLQNTQLQSAIVKAMYAATIESELDTQSAMDFILGANSQEQRERLTGWIGEIAAYYAAAPVRLGGAKVPHLMPGDSLNLQTAQDTDNGYSVFEQSLLRYIAAGLGVSYEQLSRNYAQMSYSTARASANESWAYFMGRRKFVASRQASQMFLCWLEEAIVRRVVTLPSKARFSFQEARSAWGNCDWIGSGRMAIDGLKEVQEAVMLIEAGLSTYEKECAKRGDDYQEIFAQQVRETMERRAAGLKPPAWAAAAFESGLRQSTEEEKSDSRAA
B4: large T antigen (SV40, UniProt P03070); chain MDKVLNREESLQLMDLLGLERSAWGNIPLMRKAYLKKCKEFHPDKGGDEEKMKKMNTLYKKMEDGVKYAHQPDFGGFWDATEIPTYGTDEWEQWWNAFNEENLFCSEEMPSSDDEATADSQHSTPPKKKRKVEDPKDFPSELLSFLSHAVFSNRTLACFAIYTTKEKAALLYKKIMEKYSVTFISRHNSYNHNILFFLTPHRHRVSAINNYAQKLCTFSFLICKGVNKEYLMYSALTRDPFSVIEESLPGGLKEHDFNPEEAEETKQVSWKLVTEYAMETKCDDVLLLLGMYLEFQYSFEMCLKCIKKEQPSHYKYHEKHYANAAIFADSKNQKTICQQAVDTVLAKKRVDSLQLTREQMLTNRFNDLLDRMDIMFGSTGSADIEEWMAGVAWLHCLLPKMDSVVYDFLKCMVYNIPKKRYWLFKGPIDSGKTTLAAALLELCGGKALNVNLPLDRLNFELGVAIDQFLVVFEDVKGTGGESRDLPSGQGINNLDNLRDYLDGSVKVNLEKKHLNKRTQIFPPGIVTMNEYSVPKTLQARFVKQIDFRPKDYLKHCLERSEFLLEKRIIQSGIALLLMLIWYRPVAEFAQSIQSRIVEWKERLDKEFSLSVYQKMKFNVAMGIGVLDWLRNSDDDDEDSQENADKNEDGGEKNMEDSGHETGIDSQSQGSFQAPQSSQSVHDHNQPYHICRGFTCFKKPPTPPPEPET
B5: codY V58A (Clostridioides difficile, UniProt Q18BE1); sequence looked up; chain MASEVLQKTRKINKTLQTSGGSSVSFDLLAGALGDVLSSNVYVVSAKGKVLGLHLNDAQDSSVIEDEYTKQKKFSDEYTQNVLKIDETLENLNGEKILEIFPEEHGRLQKYTTVVPILGSGQRLGTLVLSRYSNSFNDDDLVIAEYSATVVGLEILRAIGEELEEEMRKKAVVQMAIGTLSYSELEAVEHIFAELDGKEGLLVASKIADRVGITRSVIVNALRKFESAGVIESRSLGMKGTHIRILNDKLTDELKKLKNNQ
B6: gpM 1-109 (bacteriophage lambda, UniProt P03737); chain MKTFRWKVKPGMDVASVPSVRKVRFGDGYSQRAPAGLNANLKTYSVTLSVPREEATVLESFLEEHGGWKSFLWTPPYEWRQIKVTCAKWSSRVSMLRVEFSAEFEQVVN
B7: ccpA 1-329 (Staphylococcus aureus, UniProt Q5HF38); chain MTVTIYDVAREARVSMATVSRVVNGNQNVKAETKNKVNEVIKRLNYRPNAVARGLASKKTTTVGVIIPDISNIYYSQLARGLEDIATMYKYHSIISNSDNDPEKEKEIFNNLLSKQVDGIIFLGGTITEEMKELINQSSVPVVVSGTNGKDAHIASVNIDFTEAAKEITGELIEKGAKSFALVGGEHSKKAQEDVLEGLTEVLNKNGLQLGDTLNCSGAESYKEGVKAFAKMKGNLPDAILCISDEEAIGIMHSAMDAGIKVPEELQIISFNNTRLVEMVRPQLSSVIQPLYDIGAVGMRLLTKYMNDEKIEEPNVVLPHRIEYRGTTK
B8: panD (Mycobacterium abscessus, UniProt B1MGV7); chain MMFRTMMKSKIHRATVTHADLHYVGSVTIDPDLMEAADLLEGEQVTIVDIDNGARLETYAITGTRGSGVIGINGAAAHLVHPGDLVIIIAYGVMTDEEARAFTPRVVFVDSDNKQVELGEHSDDPAYVPENFGLVSPRGLV
B9: lacI 1-360 N125A/D149A (Escherichia coli, UniProt P03023); chain MKPVTLYDVAEYAGVSYQTVSRVVNQASHVSAKTREKVEAAMAELNYIPNRVAQQLAGKQSLLIGVATSSLALHAPSQIVAAIKSRADQLGASVVVSMVERSGVEACKAAVHNLLAQRVSGLIIAYPLDDQDAIAVEAACTNVPALFLAVSDQTPINSIIFSHEDGTRLGVEHLVALGHQQIALLAGPLSSVSARLRLAGWHKYLTRNQIQPIAEREGDWSAMSGFQQTMQMLNEGIVPTAMLVANDQMALGAMRAITESGLRVGADISVVGYDDTEDSSCYIPPLTTIKQDFRLLGQTSVDRLLQLSQGQAVKGNQLLPVSLVKRKTTLAPNTQTASPRALADSLMQLARQVSRLESGQ
B10: panD E96A (Mycobacterium abscessus, UniProt B1MGV7); chain MMFRTMMKSKIHRATVTHADLHYVGSVTIDPDLMEAADLLEGEQVTIVDIDNGARLETYAITGTRGSGVIGINGAAAHLVHPGDLVIIIAYGVMTDAEARAFTPRVVFVDSDNKQVELGEHSDDPAYVPENFGLVSPRGLV
B11: tad1 (Metaclostridioides mangenotii, UniProt P0DW61); chain MEIKNGLCTQKYTKVYAEDKEKWKFNAPHHFIVGKADCEDEYIEPIEYVNFQEGPIKEYGINGVNNEDLILMVITRLQAFQDSPYKCRENAMAITKLQECLMWLGKRTLDREVKGIEGTSEI
Chain of UniProt Q12527 (whole entry, looked up): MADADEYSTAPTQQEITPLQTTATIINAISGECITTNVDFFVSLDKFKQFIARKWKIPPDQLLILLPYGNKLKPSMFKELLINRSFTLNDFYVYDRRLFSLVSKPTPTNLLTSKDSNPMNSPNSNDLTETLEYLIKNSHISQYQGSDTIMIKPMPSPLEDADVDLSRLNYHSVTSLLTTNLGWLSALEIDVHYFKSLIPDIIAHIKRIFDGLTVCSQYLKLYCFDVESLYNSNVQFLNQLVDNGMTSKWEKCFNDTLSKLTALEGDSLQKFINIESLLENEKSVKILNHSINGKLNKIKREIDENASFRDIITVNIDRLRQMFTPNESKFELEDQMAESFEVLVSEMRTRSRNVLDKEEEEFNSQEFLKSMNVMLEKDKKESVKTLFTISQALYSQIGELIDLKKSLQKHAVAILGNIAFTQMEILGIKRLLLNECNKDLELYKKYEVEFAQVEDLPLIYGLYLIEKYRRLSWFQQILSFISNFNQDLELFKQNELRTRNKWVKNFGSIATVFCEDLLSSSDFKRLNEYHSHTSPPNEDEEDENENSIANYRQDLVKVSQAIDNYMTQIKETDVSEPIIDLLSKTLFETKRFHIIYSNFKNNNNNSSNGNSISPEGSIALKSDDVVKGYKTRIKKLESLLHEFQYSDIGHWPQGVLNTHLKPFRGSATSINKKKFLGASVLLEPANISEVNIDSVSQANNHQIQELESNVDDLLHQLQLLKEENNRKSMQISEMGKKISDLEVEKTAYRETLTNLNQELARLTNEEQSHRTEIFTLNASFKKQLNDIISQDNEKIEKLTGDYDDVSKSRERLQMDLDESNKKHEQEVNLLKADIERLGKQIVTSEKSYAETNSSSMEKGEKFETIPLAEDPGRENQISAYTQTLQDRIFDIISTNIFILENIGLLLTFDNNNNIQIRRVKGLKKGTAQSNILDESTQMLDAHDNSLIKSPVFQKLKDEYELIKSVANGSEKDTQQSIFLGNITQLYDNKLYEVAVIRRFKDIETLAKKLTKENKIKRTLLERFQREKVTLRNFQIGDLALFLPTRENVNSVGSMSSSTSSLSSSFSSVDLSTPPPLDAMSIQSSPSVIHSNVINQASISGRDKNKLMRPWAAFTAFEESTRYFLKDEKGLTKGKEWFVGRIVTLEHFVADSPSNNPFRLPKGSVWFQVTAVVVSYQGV
Chain of UniProt A0QVQ5 (whole entry, looked up): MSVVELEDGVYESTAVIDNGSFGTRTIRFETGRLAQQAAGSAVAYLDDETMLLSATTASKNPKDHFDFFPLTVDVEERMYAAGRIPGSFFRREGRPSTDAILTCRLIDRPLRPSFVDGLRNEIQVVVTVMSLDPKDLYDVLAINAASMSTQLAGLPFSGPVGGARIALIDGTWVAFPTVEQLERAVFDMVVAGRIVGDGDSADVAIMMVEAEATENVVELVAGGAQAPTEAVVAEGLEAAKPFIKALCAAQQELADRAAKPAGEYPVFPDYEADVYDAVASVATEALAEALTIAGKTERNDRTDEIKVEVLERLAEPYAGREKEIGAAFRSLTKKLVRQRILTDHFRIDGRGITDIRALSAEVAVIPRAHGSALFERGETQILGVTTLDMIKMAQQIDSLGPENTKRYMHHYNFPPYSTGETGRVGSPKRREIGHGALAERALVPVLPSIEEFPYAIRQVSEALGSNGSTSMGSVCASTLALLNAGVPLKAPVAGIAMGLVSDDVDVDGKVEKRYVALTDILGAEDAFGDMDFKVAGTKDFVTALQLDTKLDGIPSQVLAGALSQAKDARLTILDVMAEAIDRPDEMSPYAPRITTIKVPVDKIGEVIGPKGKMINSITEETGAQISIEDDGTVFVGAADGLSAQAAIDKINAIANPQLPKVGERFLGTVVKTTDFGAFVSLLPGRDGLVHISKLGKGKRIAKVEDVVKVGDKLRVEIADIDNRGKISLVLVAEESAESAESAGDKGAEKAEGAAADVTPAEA

Molecule | tested on | test | system | setting | how to read | endpoint | result
B1 (yukC) | itself | cryo-EM |  |  |  | subunits per oligomer | 2
B2 (protein) | itself | SEC |  |  |  | subunits per oligomer | 4
ATG11 (Saccharomyces cerevisiae, UniProt Q12527) | itself | cross-linking |  | 0.8 µM, with: BS3 32 µM |  | subunits per oligomer | 2
B3 (gpB portal 23-533) | itself | cryo-EM |  |  |  | subunits per oligomer | 12
B4 (large T antigen) | itself | native gel or EMSA |  |  |  | subunits per oligomer | 12 and 6
B5 (codY V58A) | itself | SEC |  |  |  | subunits per oligomer | 2
B6 (gpM 1-109) | itself | cryo-EM |  |  |  | subunits per oligomer | 6
B7 (ccpA 1-329) | itself | SEC |  | pH 7.4 |  | subunits per oligomer | 2
B8 (panD) | itself | native gel |  |  |  | subunits per oligomer | 4
B9 (lacI 1-360 N125A/D149A) | itself | SEC |  |  |  | subunits per oligomer | 4
B10 (panD E96A) | itself | native gel |  |  |  | subunits per oligomer | 4
pnp (Mycobacterium smegmatis, UniProt A0QVQ5) | itself | cryo-EM structure |  |  |  | subunits per oligomer | 3
B11 (tad1) | itself | X-ray crystallography |  |  |  | subunits per oligomer | 6
insulin human |  | item: PTGS2 mRNA | EcoHIV-infected mouse, brain | i.p., dose not given | baseline: PBS | fold change | 0.953

Some of these lines once more:
Molecule | tested on | test | system | setting | how to read | endpoint | result
B5 (codY V58A) | itself | SEC |  |  |  | subunits per oligomer | 2
B6 (gpM 1-109) | itself | cryo-EM |  |  |  | subunits per oligomer | 6
